Measurements pooled from the literature.
Compare with care: the assays were run in different laboratories. Numbers after ± are the reported error.
Cell line: HUVEC

| Compound | assay | conditions | how to read | endpoint | value |
| --- | --- | --- | --- | --- | --- |
| CO[C@H]1O[C@H](COS(=O)(=O)O)[C@@H](O[C@@H]2O[C@@H](C(=O)O)[C@@H](O[C@H]3O[C@H](COS(=O)(=O)O)[C@@H](O[C@@H]4O[C@H](C(=O)O)[C@@H](O[C@H]5O[C@H](COS(=O)(=O)O)[C@@H](O)[C@H](O)[C@H]5NS(=O)(=O)O)[C@H](O)[C@H]4O)[C@H](OS(=O)(=O)O)[C@H]3NS(=O)(=O)O)[C@H](O)[C@H]2OS(=O)(=O)O)[C@H](O)[C@H]1NS(=O)(=O)O | β2GPI/anti-β2GPI antibody binding | up to 200 µM |  | inhibition | no inhibition |
| O=C(Nc1cc(C(F)(F)F)ccc1N1CCCCC1)c1ccncc1 | Matrigel | concentration not given, 6 h, 37 °C |  | tube formation | no effect |
| CC(=O)OC[C@H]1O[C@@H]([S-])[C@H](OC(C)=O)[C@@H](OC(C)=O)[C@@H]1OC(C)=O.CCP(CC)CC.[Au+] | total tube length, tube formation | IC10, 16 h | baseline: untreated | inhibition | 23% |
| CNc1ncc2cc(-c3cc(OC)cc(OC)c3Cl)c(=O)n(CCc3ccc(NC(=O)C(C#N)=CC(C)(C)N4CC5(COC5)C4)cc3)c2n1 | ERK phosphorylation, inhibitor, item: phospho-ERK1/2 | together with: bFGF |  | IC50 | 0.0034 ± 0.0008 µM |
| CO[C@H]1/C=C\C=C(/C)C(=O)NC2=C(C)C(=O)C(NCCN(C)C)=C(C[C@@H](C)C[C@H](OC)[C@H](O)[C@@H](C)/C=C(\C)[C@@H]1OC(N)=O)C2=O | cytotoxicity, MTT |  |  | IC50 | > 20 µM |
| O=C(Nc1ccc(-c2ccccc2)cc1)[C@H]1O[C@H](O[C@@H]2[C@@H](OCc3ccc4ccccc4c3)[C@H](O[C@H]3O[C@H](CNS(=O)(=O)O)[C@@H](OCc4ccc5ccccc5c4)C[C@H]3NS(=O)(=O)O)[C@@H](NS(=O)(=O)O)C[C@H]2NS(=O)(=O)O)[C@H](OCc2ccc3ccccc3c2)[C@@H](NS(=O)(=O)O)[C@@H]1OCc1ccc2ccccc2c1 | cytotoxicity | 48 h |  | EC50 | 48.9 ± 3.83 µM |
| C[C@H](CS)C(=O)N1CCC[C@H]1C(=O)O | western blot | 10, 100, 1 µM, together with: angiotensin II | baseline: angiotensin II alone | p-IκBα/IκBα ratio | 30.1 % decrease |
| CC/C=C\C[C@H](O)/C=C/C=C\C/C=C\C=C\[C@@H](O)C/C=C\CCC(=O)O | HTRF | concentration not given |  | cAMP level | increased |
| CO[C@H]1/C=C\C=C(/C)C(=O)NC2=C(c3ccccc3)C(=O)C(NCCN(C)C)=C(C[C@@H](C)C[C@H](OC)[C@H](O)[C@@H](C)/C=C(\C)[C@@H]1OC(N)=O)C2=O | cytotoxicity, MTT |  |  | IC50 | 17.7 ± 1.6 µM |
| CN(C)C/C=C/C(=O)Nc1cc2c(Nc3ccc(F)c(Cl)c3)ncnc2cc1O[C@H]1CCOC1 |  |  |  | IC50 | 2.76 ± 0.22 µM |

Some of these lines once more:
| Compound | assay | conditions | how to read | endpoint | value |
| --- | --- | --- | --- | --- | --- |
| CN(C)C/C=C/C(=O)Nc1cc2c(Nc3ccc(F)c(Cl)c3)ncnc2cc1O[C@H]1CCOC1 |  |  |  | IC50 | 2.76 ± 0.22 µM |
